Measurements of several laboratories.
Protocols differ between the studies behind these lines. ± marks the error that the study gave.

Structure (SMILES) = COc1ccc(C[C@@H]2c3cc(Oc4cc(C[C@@H]5c6cc(O)c(OC)cc6CCN5C)ccc4O)c(OC)cc3CCN2C)cc1; target or system = Severe acute respiratory syndrome coronavirus 2; assay = cytopathic effect, inhibitor; system = Vero C1008; conditions = 1.562 µM; endpoint = inhibition; result = 0%
Structure (SMILES) = Cn1cnc(Cn2c(=O)[nH]/c(=N\c3cc4cn(C)nc4cc3Cl)n(Cc3cc(F)c(F)cc3F)c2=O)n1; system = human, all renal function groups; conditions = oral, 375 mg, treatment-related decreased GFR, Mild severity; endpoint = patients with adverse event; result = 0%
Structure (SMILES) = O=C(NCC1CCOC2(CCN(C(=O)C3(c4ccccc4)CCCC3)CC2)C1)C1CC1 (stereo not shown); target or system = Venezuelan equine encephalitis virus; assay = viral replication; conditions = 40 µM; endpoint = inhibition; result = 70%
Structure (SMILES) = Cn1cnc(Cn2c(=O)[nH]/c(=N\c3cc4cn(C)nc4cc3Cl)n(Cc3cc(F)c(F)cc3F)c2=O)n1; target or system = Severe acute respiratory syndrome coronavirus 2; assay = viral replication; system = Vero C1008; conditions = 1.389 µM; endpoint = inhibition; result = 100%
Structure (SMILES) = O=C(O[C@@H]1Cc2c(O)cc(O)cc2O[C@@H]1c1cc(O)c(O)c(O)c1)c1cc(O)c(O)c(O)c1; target or system = Severe acute respiratory syndrome coronavirus 2; assay = cytopathic effect, inhibitor; system = Vero C1008; conditions = 50 µM; endpoint = inhibition; result = 90%
Structure (SMILES) = CCc1c(C(=O)C(N)=O)c2c(OCC(=O)O)cccc2n1Cc1ccccc1; assay = inhibitor; system = human platelet-poor plasma; conditions = 100 µM, added: snake venom; endpoint = prothrombin time; result = no inhibition
Structure (SMILES) = CS(=O)(=O)NCC1CCOC2(CCN(C(=O)C3(c4ccccc4)CCCCC3)CC2)C1 (stereo not shown); target or system = Venezuelan equine encephalitis virus; assay = viral replication; conditions = 40 µM; endpoint = inhibition; result = 60%
Structure (SMILES) = CC(C)=CCc1c(O)ccc(C(=O)/C=C/c2ccc(O)cc2)c1O; target or system = Severe acute respiratory syndrome coronavirus 2; assay = cytopathic effect, inhibitor; system = Vero C1008; conditions = 25 µM; endpoint = inhibition; result = 0%
Structure (SMILES) = Cc1cc(NC(=O)c2cc3c(=O)n4cccc(C)c4nc3n2C)ccc1Br; target or system = Severe acute respiratory syndrome coronavirus 2; assay = viral replication, inhibitor, qPCR; system = Vero C1008; conditions = 1 µM; endpoint = inhibition; result = 92.7%
Structure (SMILES) = C[C@@H]1O[C@@H](OC[C@H]2O[C@@H](OCCc3ccc(O)c(O)c3)[C@H](O)[C@@H](O)[C@@H]2OC(=O)/C=C/c2ccc(O)c(O)c2)[C@H](O)[C@H](O)[C@H]1O; target or system = Pseudovirus, SARS-CoV-2 spike; assay = viral entry; conditions = concentration not given; endpoint = inhibition; result = 35.4%
Structure (SMILES) = NC(=O)c1ncn([C@@H]2O[C@H](CO)[C@@H](O)[C@H]2O)n1; target or system = Enterovirus C; assay = viral replication, measured: Gaussia luciferase; system = HeLa; conditions = 10 µM, 48 h; endpoint = inhibition; result = 60.3%
Structure (SMILES) = CC1(C(=O)N2CCC3(CC2)CC(CNS(C)(=O)=O)CCO3)CCCC1 (stereo not shown); target or system = Venezuelan equine encephalitis virus; assay = viral replication; conditions = 40 µM; endpoint = inhibition; result = 20%
Structure (SMILES) = CC[C@H](C)[C@H](NC(=O)[C@H](CC(C)C)NC(=O)[C@H](Cc1c[nH]c2ccccc12)NC(=O)[C@H](CCC(N)=O)NC(=O)[C@@H](NC(=O)[C@H](Cc1ccccc1)NC(=O)[C@H](C)NC(=O)[C@H](CCCCNC(=O)COCCOCCNC(=O)COCCOCCNC(=O)CC[C@H](NC(=O)CCCCCCCCCCCCCCCCCCC(=O)O)C(=O)O)NC(=O)[C@H](CCC(N)=O)NC(=O)[C@H](C)NC(=O)[C@@H](NC(=O)[C@H](CCCCN)NC(=O)[C@H](CC(=O)O)NC(=O)[C@H](CC(C)C)NC(=O)C(C)(C)NC(=O)[C@@H](NC(=O)[C@H](CO)NC(=O)[C@H](Cc1ccc(O)cc1)NC(=O)[C@H](CC(=O)O)NC(=O)[C@H](CO)NC(=O)[C@@H](NC(=O)[C@H](Cc1ccccc1)NC(=O)[C@@H](NC(=O)CNC(=O)[C@H](CCC(=O)O)NC(=O)C(C)(C)NC(=O)[C@@H](N)Cc1ccc(O)cc1)[C@@H](C)O)[C@@H](C)O)[C@@H](C)CC)[C@@H](C)CC)C(C)C)C(=O)N[C@@H](C)C(=O)NCC(=O)NCC(=O)N1CCC[C@H]1C(=O)N[C@@H](CO)C(=O)N[C@@H](CO)C(=O)NCC(=O)N[C@@H](C)C(=O)N1CCC[C@H]1C(=O)N1CCC[C@H]1C(=O)N1CCC[C@H]1C(=O)N[C@@H](CO)C(N)=O; assay = measured: anti-drug antibodies; system = patients with type 2 diabetes; conditions = 5 mg, postbaseline, proof of concept; endpoint = subjects with treatment-emergent ADA; result = 0%
Structure (SMILES) = Cn1c(C(=O)Nc2ccc(Cl)cc2)cc2c(=O)n3ccccc3nc21; target or system = Severe acute respiratory syndrome coronavirus 2; assay = viral replication, inhibitor, qPCR; system = Vero C1008; conditions = 10 µM; endpoint = inhibition; result = 94.1%
Structure (SMILES) = C=C[C@@](C)(/C=C/c1ccc(O)cc1)CCC=C(C)C; target or system = Severe acute respiratory syndrome coronavirus 2; assay = cytopathic effect, inhibitor; system = Vero C1008; conditions = 100 µM; endpoint = inhibition; result = 0%
Structure (SMILES) = COc1ccc(NC(=O)NCC2CCOC3(CCN(C(=O)C4(c5ccccc5)CCCC4)CC3)C2)cc1 (stereo not shown); target or system = Venezuelan equine encephalitis virus; assay = viral replication; conditions = 40 µM; endpoint = inhibition; result = 80%
Structure (SMILES) = O=C(/C=C/c1ccc(O)c(O)c1/C=C/c1ccc(O)c(O)c1)O[C@H](Cc1ccc(O)c(O)c1)C(=O)O; target or system = Severe acute respiratory syndrome coronavirus 2; assay = cytopathic effect; system = Vero C1008; conditions = 1.562 µM; endpoint = inhibition; result = 0%
Structure (SMILES) = CCOc1ccc(Cc2nccc3cc(OCC)c(OCC)cc23)cc1OCC; target or system = Enterovirus C; assay = viral replication, measured: Gaussia luciferase; system = HeLa; conditions = 10 µM, 48 h; endpoint = inhibition; result = 82.8%
Structure (SMILES) = CS(=O)(=O)NCC1CCOC2(CCN(C(=O)C3(c4ccccc4)CCC3)CC2)C1 (stereo not shown); target or system = Venezuelan equine encephalitis virus; assay = viral replication; conditions = 40 µM; endpoint = inhibition; result = 20%
Structure (SMILES) = CCC(CC)COC(=O)[C@H](C)N[P@](=O)(OC[C@H]1O[C@@](C#N)(c2ccc3c(N)ncnn23)[C@H](O)[C@@H]1O)Oc1ccccc1; target or system = Severe acute respiratory syndrome coronavirus 2; assay = viral replication, inhibitor, qPCR; system = Vero C1008; conditions = 10 µM; endpoint = inhibition; result = 97.6%
Structure (SMILES) = CNC(=O)[C@@H](NC(=O)[C@H](CC(C)C)[C@H](O)C(=O)NO)C(C)(C)C; target or system = human fibrinogen; assay = SDS-PAGE; system = Daboia russelii; conditions = concentration not given, unit not given, added: MH venom; scale = reference: untreated fibrinogen; endpoint = remaining fibrinogen Aα chain; result = 0.236
Structure (SMILES) = COc1ccccc1-c1cccc(CN2CCCC(C(=O)NCc3ccc(F)cc3)C2)c1 (stereo not shown); target or system = SARS-CoV-2; assay = cytopathic effect; system = USA_WA1/2020; conditions = retest, 8-point, duplicates; endpoint = maximum response; result = 74.1%
Structure (SMILES) = Nc1ncnc2c([C@@H]3N[C@H](CO)[C@@H](O)[C@H]3O)c[nH]c12; target or system = Junin virus; assay = viral replication; system = HeLa, Romero; conditions = 0.8 µM; endpoint = inhibition; result = 4.7%
Structure (SMILES) = COc1ccc(C2(C(=O)N3CCC4(CC3)CC(CNS(C)(=O)=O)CCO4)CCCC2)cc1 (stereo not shown); target or system = Venezuelan equine encephalitis virus; assay = viral replication; conditions = 40 µM; endpoint = inhibition; result = < 10%
Structure (SMILES) = O=C(Nc1ccccc1F)c1cc2c(=O)n3ccccc3nc2n1Cc1ccccc1; target or system = Severe acute respiratory syndrome coronavirus 2; assay = viral replication, inhibitor, qPCR; system = Vero C1008; conditions = 10 µM; endpoint = inhibition; result = 95.9%
Structure (SMILES) = CC(C)(C)[C@H](NC(=O)C(F)(F)F)C(=O)N1C[C@H]2[C@@H]([C@H]1C(=O)N[C@H](C#N)C[C@@H]1CCNC1=O)C2(C)C; target or system = SARS-CoV-2; assay = viral replication, infectious virus; system = Vero E6; conditions = 1.25 µM; endpoint = inhibition; result = 25.8%
Structure (SMILES) = COCC1=N[C@]23c4c(OC)cc(OC)cc4O[C@@]2(c2ccc(OC)cc2)[C@H](c2ccccc2)[C@@H](C(=O)N(C)OC)[C@]3(O)N1; target or system = SARS-CoV; system = A549-ACE2; conditions = concentration not given, 48 h; endpoint = inhibition; result = ~50%
Structure (SMILES) = Cc1ccnc(NC2CCOC3(CCN(C(=O)C4(c5ccccc5)CCCC4)CC3)C2)c1 (stereo not shown); target or system = Venezuelan equine encephalitis virus; assay = viral replication; conditions = 40 µM; endpoint = inhibition; result = 80%
Structure (SMILES) = O=C(NCCCN1CCCCCC1)c1ccc2c(c1)sc1nc(-c3ccccc3)cn12; target or system = SARS-CoV-2; assay = cytopathic effect; system = USA_WA1/2020; conditions = round 2, 5-point; endpoint = maximum response; result = 76.6%
Structure (SMILES) = CS(=O)(=O)N(Cc1ccccc1)CC1CCOC2(CCN(C(=O)C3(c4ccccc4)CCCC3)CC2)C1 (stereo not shown); target or system = Venezuelan equine encephalitis virus; assay = viral replication; conditions = 40 µM; endpoint = inhibition; result = 70%
Structure (SMILES) = CN[C@H](CC(C)C)C(=O)N[C@H]1C(=O)N[C@@H](CC(N)=O)C(=O)N[C@H]2C(=O)N[C@H]3C(=O)N[C@H](C(=O)N[C@H](C(=O)O)c4cc(O)cc(O)c4-c4cc3ccc4O)[C@H](O)c3ccc(c(Cl)c3)Oc3cc2cc(c3O[C@@H]2O[C@H](CO)[C@@H](O)[C@H](O)[C@H]2O[C@H]2C[C@](C)(N)[C@H](O)[C@H](C)O2)Oc2ccc(cc2Cl)[C@H]1O; target or system = SARS-CoV-2 pseudovirus; assay = viral entry; conditions = 10 µM, 48 h; endpoint = inhibition; result = 20.3 ± 4.78%

A few entries again:
Structure (SMILES) = COc1ccccc1-c1cccc(CN2CCCC(C(=O)NCc3ccc(F)cc3)C2)c1 (stereo not shown); target or system = SARS-CoV-2; assay = cytopathic effect; system = USA_WA1/2020; conditions = retest, 8-point, duplicates; endpoint = maximum response; result = 74.1%
Structure (SMILES) = Nc1ncnc2c([C@@H]3N[C@H](CO)[C@@H](O)[C@H]3O)c[nH]c12; target or system = Junin virus; assay = viral replication; system = HeLa, Romero; conditions = 0.8 µM; endpoint = inhibition; result = 4.7%
Structure (SMILES) = COc1ccc(C2(C(=O)N3CCC4(CC3)CC(CNS(C)(=O)=O)CCO4)CCCC2)cc1 (stereo not shown); target or system = Venezuelan equine encephalitis virus; assay = viral replication; conditions = 40 µM; endpoint = inhibition; result = < 10%
Structure (SMILES) = O=C(Nc1ccccc1F)c1cc2c(=O)n3ccccc3nc2n1Cc1ccccc1; target or system = Severe acute respiratory syndrome coronavirus 2; assay = viral replication, inhibitor, qPCR; system = Vero C1008; conditions = 10 µM; endpoint = inhibition; result = 95.9%
